# Assay results of several laboratories.
# Every numbered part comes from another study and shows a few of its results, in no order. Several values in a cell are separate wells, animals, samples, runs or records.
# Chain of UniProt Q15418 (whole entry, looked up): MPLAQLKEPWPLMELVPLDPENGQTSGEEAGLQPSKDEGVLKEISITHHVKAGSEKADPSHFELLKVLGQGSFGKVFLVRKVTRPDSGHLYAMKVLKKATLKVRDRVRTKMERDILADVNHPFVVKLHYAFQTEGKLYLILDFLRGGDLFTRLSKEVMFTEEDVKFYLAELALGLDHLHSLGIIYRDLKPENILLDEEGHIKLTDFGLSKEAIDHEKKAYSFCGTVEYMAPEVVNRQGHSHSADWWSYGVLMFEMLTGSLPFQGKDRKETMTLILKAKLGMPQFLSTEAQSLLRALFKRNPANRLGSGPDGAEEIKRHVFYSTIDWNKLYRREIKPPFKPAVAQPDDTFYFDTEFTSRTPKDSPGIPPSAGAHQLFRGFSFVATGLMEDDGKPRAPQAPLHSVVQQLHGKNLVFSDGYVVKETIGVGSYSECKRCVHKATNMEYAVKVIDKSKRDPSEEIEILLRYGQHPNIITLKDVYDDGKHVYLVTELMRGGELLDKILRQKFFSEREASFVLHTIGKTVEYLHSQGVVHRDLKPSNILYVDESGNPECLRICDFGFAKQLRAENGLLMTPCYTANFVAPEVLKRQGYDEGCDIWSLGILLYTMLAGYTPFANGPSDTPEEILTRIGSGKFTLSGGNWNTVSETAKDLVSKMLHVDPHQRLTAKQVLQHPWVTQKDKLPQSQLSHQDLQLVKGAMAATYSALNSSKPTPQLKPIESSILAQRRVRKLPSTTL
# Chain of UniProt P23443 (whole entry, looked up): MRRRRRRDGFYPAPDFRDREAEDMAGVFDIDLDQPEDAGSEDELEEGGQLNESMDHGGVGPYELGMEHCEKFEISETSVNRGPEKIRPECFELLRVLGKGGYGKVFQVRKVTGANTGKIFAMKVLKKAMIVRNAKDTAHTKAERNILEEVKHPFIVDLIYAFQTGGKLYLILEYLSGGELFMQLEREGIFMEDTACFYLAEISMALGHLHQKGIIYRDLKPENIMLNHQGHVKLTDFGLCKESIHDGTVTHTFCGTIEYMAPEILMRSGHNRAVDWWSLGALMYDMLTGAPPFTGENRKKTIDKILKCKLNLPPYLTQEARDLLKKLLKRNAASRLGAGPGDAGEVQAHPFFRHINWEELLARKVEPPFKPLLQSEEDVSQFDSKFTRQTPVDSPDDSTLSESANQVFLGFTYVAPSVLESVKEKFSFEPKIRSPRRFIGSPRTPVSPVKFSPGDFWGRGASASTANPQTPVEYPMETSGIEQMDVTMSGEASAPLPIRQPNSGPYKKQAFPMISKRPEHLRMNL
# Chain of UniProt Q9NWZ3 (whole entry, looked up): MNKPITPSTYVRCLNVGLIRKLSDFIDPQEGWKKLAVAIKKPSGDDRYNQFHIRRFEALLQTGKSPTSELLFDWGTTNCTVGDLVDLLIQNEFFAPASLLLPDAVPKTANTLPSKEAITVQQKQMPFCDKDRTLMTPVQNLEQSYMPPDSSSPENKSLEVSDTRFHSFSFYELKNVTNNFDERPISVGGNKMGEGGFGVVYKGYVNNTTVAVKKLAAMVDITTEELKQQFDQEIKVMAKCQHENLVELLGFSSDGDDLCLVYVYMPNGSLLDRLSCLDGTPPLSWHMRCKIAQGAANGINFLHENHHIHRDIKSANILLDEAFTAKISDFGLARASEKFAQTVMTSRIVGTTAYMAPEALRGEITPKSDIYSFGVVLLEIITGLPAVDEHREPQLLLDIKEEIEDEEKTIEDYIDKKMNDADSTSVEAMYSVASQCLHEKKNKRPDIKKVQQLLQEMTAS
# Chain of UniProt P07333 (whole entry, looked up): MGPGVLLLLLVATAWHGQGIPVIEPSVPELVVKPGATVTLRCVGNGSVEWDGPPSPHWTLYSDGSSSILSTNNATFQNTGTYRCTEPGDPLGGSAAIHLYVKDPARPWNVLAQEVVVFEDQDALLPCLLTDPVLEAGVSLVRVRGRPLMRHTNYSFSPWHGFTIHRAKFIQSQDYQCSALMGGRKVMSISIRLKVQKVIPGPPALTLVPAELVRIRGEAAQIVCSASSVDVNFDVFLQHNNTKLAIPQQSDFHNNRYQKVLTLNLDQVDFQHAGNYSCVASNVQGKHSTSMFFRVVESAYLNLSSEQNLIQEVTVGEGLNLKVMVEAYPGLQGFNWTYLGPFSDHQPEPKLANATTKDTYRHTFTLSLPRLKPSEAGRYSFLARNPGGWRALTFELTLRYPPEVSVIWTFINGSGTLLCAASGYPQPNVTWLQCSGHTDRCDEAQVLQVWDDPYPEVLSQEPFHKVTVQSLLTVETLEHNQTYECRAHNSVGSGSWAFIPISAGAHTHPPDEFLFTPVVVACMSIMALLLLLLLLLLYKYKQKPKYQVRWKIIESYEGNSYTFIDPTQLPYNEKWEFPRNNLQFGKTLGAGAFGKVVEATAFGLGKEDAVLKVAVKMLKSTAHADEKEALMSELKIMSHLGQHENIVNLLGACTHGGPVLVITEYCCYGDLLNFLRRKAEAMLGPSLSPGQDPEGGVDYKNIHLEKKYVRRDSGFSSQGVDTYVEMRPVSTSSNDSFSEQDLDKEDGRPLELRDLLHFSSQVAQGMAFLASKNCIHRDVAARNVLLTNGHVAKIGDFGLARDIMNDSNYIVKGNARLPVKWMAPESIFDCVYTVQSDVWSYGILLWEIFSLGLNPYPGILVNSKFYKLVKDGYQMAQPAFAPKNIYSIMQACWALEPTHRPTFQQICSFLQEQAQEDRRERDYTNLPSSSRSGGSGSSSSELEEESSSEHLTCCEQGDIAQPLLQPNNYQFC
# Chain of UniProt Q6PHR2 (whole entry, looked up): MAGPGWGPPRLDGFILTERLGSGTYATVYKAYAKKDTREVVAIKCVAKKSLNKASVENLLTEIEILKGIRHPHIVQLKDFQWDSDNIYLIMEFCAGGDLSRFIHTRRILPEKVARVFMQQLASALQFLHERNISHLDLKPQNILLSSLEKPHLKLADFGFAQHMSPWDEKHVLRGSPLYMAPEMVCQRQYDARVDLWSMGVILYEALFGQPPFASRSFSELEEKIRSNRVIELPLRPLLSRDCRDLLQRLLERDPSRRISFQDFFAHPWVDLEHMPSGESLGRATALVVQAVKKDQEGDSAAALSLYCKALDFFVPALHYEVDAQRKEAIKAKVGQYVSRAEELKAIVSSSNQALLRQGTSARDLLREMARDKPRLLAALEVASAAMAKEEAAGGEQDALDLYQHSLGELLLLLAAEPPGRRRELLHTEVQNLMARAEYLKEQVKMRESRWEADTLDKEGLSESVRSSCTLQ
# Chain of UniProt P15735 (whole entry, looked up): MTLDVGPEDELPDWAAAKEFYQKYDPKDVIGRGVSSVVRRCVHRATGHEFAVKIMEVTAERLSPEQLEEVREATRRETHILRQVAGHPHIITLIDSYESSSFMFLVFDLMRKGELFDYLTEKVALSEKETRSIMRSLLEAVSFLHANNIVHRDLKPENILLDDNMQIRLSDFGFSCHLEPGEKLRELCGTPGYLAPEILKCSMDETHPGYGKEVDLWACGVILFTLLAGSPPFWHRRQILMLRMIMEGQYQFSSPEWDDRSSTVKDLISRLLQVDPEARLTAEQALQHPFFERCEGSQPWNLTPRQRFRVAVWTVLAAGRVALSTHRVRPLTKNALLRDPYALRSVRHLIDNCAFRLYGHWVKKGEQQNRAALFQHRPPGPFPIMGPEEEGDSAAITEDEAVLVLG
# Chain of UniProt P45984 (whole entry, looked up): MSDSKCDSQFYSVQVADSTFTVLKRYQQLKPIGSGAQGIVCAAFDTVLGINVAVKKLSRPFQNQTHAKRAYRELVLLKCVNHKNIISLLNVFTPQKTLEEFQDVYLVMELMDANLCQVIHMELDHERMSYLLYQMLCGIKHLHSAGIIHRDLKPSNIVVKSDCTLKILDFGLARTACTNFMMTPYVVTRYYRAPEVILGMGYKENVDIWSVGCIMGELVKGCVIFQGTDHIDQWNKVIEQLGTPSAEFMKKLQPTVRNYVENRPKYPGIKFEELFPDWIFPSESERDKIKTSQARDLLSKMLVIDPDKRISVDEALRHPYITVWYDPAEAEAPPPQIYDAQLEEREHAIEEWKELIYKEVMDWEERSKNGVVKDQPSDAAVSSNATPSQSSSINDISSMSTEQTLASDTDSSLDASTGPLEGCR
# Chain of UniProt P53778 (whole entry, looked up): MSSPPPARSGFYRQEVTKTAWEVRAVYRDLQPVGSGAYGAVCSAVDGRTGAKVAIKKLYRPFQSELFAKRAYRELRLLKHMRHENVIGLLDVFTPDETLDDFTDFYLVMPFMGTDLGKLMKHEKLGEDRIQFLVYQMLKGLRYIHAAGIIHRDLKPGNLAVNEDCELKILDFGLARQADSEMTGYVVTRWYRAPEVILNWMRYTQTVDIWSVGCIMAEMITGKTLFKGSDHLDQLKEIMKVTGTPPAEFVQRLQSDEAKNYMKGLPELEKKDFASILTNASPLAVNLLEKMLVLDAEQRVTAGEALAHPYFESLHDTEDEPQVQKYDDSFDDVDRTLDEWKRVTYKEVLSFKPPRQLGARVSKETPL

# Block 1
# Structure (SMILES): CN(C)C(=O)Cn1cc(-c2nc(C3(c4ccc(-c5cnc(N)nc5)cc4)CC3)no2)cn1
# Effect on: cell-free assay
# Technique: competition with immobilised ligand
# Tested at: 1 µM
target,remaining binding [%]
"NIM1K (Homo sapiens, UniProt Q8IY84)",83
"FGFR3 (Homo sapiens, UniProt P22607, G697C)",100
"PIK3CG (Homo sapiens, UniProt P48736)",85
"MINK1 (Homo sapiens, UniProt Q8N4C8)",91
"RPS6KB1 (Homo sapiens, UniProt P23443)",91
"ERBB2 (Homo sapiens, UniProt P04626)",80
"ROS1 (Homo sapiens, UniProt P08922)",87
"TLK1 (Homo sapiens, UniProt Q9UKI8)",100
"ACVR1 (Homo sapiens, UniProt Q04771)",95
"MAPK12 (Homo sapiens, UniProt P53778)",62
"Tyrosine-protein kinase ABL1, phosphorylated (ABL1, Homo sapiens, UniProt P00519, T315I)",100
"PHKG2 (Homo sapiens, UniProt P15735)",91
"COQ8B (Homo sapiens, UniProt Q96D53)",100
"IRAK4 (Homo sapiens, UniProt Q9NWZ3)",84
"PDPK1 (Homo sapiens, UniProt O15530)",82
"Tyrosine-protein kinase ABL1, phosphorylated (ABL1, Homo sapiens, UniProt P00519, F317L)",85
"MAP3K9 (Homo sapiens, UniProt P80192)",91
"PAK4 (Homo sapiens, UniProt O96013)",100
"Ribosomal protein S6 kinase alpha-1, C-terminal kinase domain (RPS6KA1, Homo sapiens, UniProt Q15418)",100
"MAPK13 (Homo sapiens, UniProt O15264)",91
"ITK (Homo sapiens, UniProt Q08881)",92
"ULK3 (Homo sapiens, UniProt Q6PHR2)",68
"HUNK (Homo sapiens, UniProt P57058)",96
"MAPK9 (Homo sapiens, UniProt P45984)",81
"EPHA3 (Homo sapiens, UniProt P29320)",89

# Block 2
# Structure (SMILES): CC(C)C[C@H]1NC(=O)[C@H](N(C)C(=O)[C@@H](CC2CCC2)NC(=O)[C@H]2C[C@H](F)CN2C(=O)C2(C(F)(F)F)CC(F)(F)C2)CCCCNC(=O)C2(CC2)NC(=O)[C@@H](Cc2cc(Cl)ccc2Cl)N(C)C1=O
# Technique: Vi-Cell counting
# Time: 6 days
# Relative to: DMSO
cell line,setting,cell count
NCI-H446,60 nM,0.892 and 1.17 and 0.991
NCI-H1299,2 µM,1.09 and 0.945 and 1.06
HCC4006,20 nM,0.992 and 1.01 and 0.932
NCI-H1299,600 nM,1.07 and 0.92 and 0.936
A549,60 nM,1.06 and 1.01 and 0.995

# Block 3
# Compound: Cc1ccc(S(=O)(=O)/C=C/C#N)cc1
# Effect on: enzyme activity
# Mode: inhibitor
# Tested at: 0.5 µM
# Relative to: control
target,remaining activity [%]
"SGK1 (Homo sapiens, UniProt O00141)",98.7
"CSF1R (Homo sapiens, UniProt P07333)",93.6
"RPS6KA1 (Homo sapiens, UniProt Q15418)",91.6
"EPHB2 (Homo sapiens, UniProt P29323)",104
"PRKCE (Homo sapiens, UniProt Q02156)",106
"Aurora kinase C (AURKC, Homo sapiens, UniProt Q9UQB9)",97.1
"RPS6KB1 (Homo sapiens, UniProt P23443)",105
"BMX (Homo sapiens, UniProt P51813)",105
"PAK2 (Homo sapiens, UniProt Q13177)",102
"GRK2 (Homo sapiens, UniProt P25098)",102

# Block 4
# Host: human
# Sample: microsomes or S9
# Tested at: 2 µM
# Time: 0.5 h
Compound,remaining compound [%]
COC(=O)Nc1ccc(-c2ccc(C)nc2N)cc1,91.6
CC(C)(C)c1ccc(O)c(NC(=O)c2cc(Br)c[nH]2)c1,0.328
COc1cc(/C=N/n2cnnc2)cc(Br)c1OCCOc1ccc(C(C)(C)C)cc1,86.5
O=S1(=O)N=C(Nc2nccs2)c2ccccc21,82.3
CCOC(=O)Cn1c2c(c(=N)c3c1CCC3)CCC2,91.8
COc1nn(C)cc1C(=O)N1CCN(c2nccn3nc4c(c23)CCCC4)CC1,55.8
O=C(c1c2c(nc3ccccc13)C(=O)N(C1CCCCC1)C2)N1CCN(C2CCCCC2)CC1,34.3
Clc1ccc(C2=Nc3c(nnn3Cc3ccccc3)C3=NCCN23)cc1,> 100

# Block 5
# Target: Calcium/calmodulin-dependent protein kinase type II subunit alpha (CAMK2A, Homo sapiens, UniProt Q9UQM7)
# Chain of UniProt Q9UQM7 (whole entry, looked up): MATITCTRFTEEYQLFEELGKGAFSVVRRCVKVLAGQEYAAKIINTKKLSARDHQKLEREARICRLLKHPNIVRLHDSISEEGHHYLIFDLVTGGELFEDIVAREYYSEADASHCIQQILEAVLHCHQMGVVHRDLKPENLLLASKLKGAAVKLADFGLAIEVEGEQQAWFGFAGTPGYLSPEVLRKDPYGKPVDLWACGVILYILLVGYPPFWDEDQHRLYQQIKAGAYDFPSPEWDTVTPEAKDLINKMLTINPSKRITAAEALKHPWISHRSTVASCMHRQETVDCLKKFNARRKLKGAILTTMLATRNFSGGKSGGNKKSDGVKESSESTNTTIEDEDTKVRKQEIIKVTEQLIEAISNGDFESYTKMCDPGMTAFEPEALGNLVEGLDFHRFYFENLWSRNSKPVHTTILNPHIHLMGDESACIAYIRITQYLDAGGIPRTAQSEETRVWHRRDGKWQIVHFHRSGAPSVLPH
# Effect on: enzyme activity
# Mode: inhibitor
# Tested at: 10 µM
Compound,inhibition
COC(=O)[C@@H]1CC2=CC(=O)CC[C@]2(C)[C@@]23O[C@@H]2C[C@@]2(C)[C@@H](CC[C@@]24CCC(=O)O4)[C@H]13,1%
C[C@@]12C[C@@]3(O)O[C@@H](O1)[C@]1(COC(=O)c4ccccc4)[C@H]3C[C@@]12O[C@@H]1O[C@H](COC(=O)c2ccccc2)[C@@H](O)[C@H](O)[C@H]1O,11%
NCc1ccccc1CC(=O)N[C@@H]1C(=O)N2C(C(=O)O)=C(CSc3nnnn3CC(=O)O)CS[C@H]12,0%
C[C@H]1[C@H](C)CC[C@]2(C(=O)O[C@@H]3O[C@H](CO[C@@H]4O[C@H](CO)[C@@H](O[C@@H]5O[C@@H](C)[C@H](O)[C@@H](O)[C@H]5O)[C@H](O)[C@H]4O)[C@@H](O)[C@H](O)[C@H]3O)CC[C@]3(C)C(=CC[C@@H]4[C@@]5(C)C[C@@H](O)[C@H](O)[C@@](C)(CO)[C@@H]5[C@H](O)C[C@]43C)[C@H]12,17%
COc1cc(O)cc2oc(-c3ccc(O)c(O)c3)c(O)c(=O)c12,55%
C[C@H](CCC(=O)NCCS(=O)(=O)O)[C@H]1CC[C@H]2[C@@H]3CC[C@@H]4C[C@H](O)CC[C@]4(C)[C@H]3CC[C@]12C,-7%
CC(C)=CC/C=C(\C)[C@H]1CC[C@]2(C)[C@@H]1[C@H](O)C[C@@H]1[C@@]3(C)C[C@@H](O)[C@H](O[C@@H]4O[C@H](CO)[C@@H](O)[C@H](O)[C@H]4O[C@@H]4O[C@H](CO)[C@@H](O)[C@H](O)[C@H]4O)C(C)(C)[C@@H]3CC[C@]12C,-12%
O=C(O)C(=O)Cc1ccccc1,-13%
O=C(c1cc(Cc2n[nH]c(=O)c3ccccc23)ccc1F)N1CCn2nc(C(F)(F)F)nc2C1,0%
O=C(CCCCCCCCc1ccc(O)c(O)c1)c1c(O)cccc1O,-42%

# Excerpt of the above (block 5):
Compound,inhibition
O=C(O)C(=O)Cc1ccccc1,-13%
CC(C)=CC/C=C(\C)[C@H]1CC[C@]2(C)[C@@H]1[C@H](O)C[C@@H]1[C@@]3(C)C[C@@H](O)[C@H](O[C@@H]4O[C@H](CO)[C@@H](O)[C@H](O)[C@H]4O[C@@H]4O[C@H](CO)[C@@H](O)[C@H](O)[C@H]4O)C(C)(C)[C@@H]3CC[C@]12C,-12%
O=C(CCCCCCCCc1ccc(O)c(O)c1)c1c(O)cccc1O,-42%
